Measurements gathered from unrelated publications.
Numbered parts are unrelated; each lists some results of a single study.
Sequence of UniProt P10721 (whole entry, unmodified, looked up): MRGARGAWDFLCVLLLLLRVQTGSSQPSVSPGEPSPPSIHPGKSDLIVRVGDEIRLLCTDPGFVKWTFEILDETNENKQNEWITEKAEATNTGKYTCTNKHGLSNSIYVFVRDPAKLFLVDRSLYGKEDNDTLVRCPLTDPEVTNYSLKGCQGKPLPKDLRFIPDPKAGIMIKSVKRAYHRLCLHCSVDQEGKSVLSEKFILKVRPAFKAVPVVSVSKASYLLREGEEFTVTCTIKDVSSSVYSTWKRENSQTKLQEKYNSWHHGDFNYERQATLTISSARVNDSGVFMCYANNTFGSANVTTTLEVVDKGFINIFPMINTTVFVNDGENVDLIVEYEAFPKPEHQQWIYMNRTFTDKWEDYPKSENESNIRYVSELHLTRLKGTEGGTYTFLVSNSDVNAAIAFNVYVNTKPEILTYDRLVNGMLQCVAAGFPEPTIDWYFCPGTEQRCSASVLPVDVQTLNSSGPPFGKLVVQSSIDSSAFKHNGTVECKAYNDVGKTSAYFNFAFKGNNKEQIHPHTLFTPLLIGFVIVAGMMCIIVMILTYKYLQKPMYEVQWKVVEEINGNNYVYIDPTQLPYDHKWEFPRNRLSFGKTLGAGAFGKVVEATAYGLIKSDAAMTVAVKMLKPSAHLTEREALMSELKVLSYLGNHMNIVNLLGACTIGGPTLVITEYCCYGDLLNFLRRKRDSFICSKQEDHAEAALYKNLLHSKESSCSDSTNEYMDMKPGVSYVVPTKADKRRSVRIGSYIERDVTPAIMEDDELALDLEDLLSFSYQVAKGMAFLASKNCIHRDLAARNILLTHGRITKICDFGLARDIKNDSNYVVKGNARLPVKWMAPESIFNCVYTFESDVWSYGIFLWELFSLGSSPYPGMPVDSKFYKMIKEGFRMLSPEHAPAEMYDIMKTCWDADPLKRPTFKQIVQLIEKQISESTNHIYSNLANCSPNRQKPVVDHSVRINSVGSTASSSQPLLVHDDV
Sequence of UniProt O14733 (whole entry, looked up): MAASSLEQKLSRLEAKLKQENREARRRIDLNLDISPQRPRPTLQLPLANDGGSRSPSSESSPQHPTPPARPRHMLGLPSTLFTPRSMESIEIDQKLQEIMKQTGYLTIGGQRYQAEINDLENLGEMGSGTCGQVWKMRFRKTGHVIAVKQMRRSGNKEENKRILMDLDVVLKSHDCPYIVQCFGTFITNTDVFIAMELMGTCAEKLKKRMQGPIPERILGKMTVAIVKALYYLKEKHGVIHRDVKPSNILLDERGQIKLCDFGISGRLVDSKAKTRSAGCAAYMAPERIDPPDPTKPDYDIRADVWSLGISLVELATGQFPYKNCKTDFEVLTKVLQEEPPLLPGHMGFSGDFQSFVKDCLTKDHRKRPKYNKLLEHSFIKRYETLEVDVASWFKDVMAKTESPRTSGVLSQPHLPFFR
Sequence of UniProt Q15208 (whole entry, looked up): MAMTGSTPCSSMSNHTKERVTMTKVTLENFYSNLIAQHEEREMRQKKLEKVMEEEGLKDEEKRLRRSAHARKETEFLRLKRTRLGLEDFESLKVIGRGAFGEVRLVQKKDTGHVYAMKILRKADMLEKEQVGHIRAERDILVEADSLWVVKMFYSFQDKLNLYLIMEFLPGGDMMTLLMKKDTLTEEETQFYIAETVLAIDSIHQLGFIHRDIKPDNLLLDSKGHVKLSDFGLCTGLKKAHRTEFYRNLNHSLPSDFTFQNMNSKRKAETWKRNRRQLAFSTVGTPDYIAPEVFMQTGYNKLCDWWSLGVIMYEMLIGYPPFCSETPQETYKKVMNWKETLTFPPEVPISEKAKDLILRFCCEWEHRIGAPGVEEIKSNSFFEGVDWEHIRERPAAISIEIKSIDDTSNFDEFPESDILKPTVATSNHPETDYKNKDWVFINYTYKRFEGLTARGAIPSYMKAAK
Sequence of UniProt O76039 (whole entry, looked up): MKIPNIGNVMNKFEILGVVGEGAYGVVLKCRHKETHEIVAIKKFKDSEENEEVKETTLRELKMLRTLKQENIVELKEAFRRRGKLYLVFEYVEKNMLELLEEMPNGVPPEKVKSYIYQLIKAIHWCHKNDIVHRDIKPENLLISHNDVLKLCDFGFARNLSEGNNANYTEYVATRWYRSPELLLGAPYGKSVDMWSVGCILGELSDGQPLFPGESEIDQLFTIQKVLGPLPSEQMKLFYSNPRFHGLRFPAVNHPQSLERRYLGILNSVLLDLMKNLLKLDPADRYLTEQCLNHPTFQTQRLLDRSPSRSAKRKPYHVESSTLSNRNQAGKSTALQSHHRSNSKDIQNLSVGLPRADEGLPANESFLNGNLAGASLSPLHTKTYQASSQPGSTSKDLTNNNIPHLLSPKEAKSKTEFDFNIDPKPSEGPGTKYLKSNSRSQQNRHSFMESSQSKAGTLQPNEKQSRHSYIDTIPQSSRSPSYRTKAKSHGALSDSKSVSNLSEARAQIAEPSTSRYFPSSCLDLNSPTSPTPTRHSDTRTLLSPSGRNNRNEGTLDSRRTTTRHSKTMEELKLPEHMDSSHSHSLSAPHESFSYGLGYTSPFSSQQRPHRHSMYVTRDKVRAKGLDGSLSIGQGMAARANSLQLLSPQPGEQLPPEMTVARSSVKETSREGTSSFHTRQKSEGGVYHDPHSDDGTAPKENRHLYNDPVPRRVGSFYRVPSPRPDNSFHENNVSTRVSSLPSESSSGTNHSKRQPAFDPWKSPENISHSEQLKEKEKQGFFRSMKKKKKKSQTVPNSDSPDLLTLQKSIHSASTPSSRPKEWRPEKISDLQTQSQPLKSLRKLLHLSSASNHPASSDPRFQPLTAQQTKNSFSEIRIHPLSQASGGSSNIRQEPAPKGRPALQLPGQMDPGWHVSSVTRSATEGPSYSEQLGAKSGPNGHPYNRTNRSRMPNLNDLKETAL
Sequence of UniProt Q9HAZ1 (whole entry, looked up): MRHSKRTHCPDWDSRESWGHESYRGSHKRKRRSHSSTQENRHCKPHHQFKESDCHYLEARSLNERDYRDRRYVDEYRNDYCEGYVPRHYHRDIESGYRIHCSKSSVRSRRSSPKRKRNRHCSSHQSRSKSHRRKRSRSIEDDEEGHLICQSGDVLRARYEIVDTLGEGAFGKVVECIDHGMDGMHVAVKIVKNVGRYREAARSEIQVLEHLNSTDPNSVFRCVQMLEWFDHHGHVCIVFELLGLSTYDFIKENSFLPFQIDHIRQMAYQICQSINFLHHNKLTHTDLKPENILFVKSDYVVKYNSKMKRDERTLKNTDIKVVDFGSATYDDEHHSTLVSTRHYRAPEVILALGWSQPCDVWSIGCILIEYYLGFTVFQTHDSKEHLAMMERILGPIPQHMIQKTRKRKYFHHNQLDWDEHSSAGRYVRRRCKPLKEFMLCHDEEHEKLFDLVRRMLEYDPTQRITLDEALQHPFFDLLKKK
Sequence of UniProt O00329 (whole entry, looked up): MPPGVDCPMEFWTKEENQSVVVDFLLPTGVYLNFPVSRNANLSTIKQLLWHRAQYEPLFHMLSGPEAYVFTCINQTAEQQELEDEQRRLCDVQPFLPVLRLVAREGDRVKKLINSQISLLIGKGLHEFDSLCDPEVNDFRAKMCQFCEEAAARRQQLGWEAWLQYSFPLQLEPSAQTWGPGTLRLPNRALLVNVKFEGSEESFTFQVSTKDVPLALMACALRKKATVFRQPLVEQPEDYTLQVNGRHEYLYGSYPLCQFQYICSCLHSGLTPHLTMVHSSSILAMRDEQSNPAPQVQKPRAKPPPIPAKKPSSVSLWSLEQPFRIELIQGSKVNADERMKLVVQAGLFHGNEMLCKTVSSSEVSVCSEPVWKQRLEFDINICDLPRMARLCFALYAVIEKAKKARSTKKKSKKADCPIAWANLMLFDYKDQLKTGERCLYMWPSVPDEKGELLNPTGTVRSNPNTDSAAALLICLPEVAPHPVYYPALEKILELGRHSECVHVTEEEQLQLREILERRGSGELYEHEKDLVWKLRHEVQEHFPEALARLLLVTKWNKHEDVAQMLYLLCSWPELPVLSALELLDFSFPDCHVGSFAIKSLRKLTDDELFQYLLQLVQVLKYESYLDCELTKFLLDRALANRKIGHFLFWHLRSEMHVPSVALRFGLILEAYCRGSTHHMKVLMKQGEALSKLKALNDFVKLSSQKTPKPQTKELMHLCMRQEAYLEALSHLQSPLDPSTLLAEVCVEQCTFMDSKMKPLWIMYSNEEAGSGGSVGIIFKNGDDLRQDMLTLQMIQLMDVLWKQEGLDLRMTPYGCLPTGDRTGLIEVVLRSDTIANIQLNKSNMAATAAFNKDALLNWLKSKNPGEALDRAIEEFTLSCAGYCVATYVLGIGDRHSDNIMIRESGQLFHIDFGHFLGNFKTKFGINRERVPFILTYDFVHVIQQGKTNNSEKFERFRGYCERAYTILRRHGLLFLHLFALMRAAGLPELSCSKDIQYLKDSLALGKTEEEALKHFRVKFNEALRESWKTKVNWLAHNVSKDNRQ
Sequence of UniProt Q13546 (whole entry, looked up): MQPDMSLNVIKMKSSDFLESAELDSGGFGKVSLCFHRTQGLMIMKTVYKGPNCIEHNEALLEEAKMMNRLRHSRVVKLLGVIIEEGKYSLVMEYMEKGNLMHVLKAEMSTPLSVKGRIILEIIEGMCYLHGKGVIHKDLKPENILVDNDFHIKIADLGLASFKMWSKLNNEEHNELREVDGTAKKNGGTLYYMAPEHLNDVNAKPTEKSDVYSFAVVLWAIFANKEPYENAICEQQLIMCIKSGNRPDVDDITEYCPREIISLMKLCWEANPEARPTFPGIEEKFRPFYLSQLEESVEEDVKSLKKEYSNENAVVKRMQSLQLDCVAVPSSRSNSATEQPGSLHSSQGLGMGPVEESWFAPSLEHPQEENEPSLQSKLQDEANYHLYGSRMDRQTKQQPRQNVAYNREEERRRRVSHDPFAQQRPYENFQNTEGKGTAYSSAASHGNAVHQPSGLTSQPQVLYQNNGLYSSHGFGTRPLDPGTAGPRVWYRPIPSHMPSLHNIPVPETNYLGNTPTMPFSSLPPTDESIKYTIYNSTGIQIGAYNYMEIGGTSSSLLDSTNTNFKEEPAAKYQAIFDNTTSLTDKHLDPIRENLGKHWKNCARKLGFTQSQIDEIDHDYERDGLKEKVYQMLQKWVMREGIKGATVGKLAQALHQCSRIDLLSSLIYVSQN

Set 1
Target: Histone acetyltransferase KAT6A, winged helix 1, GST fusion (KAT6A, Homo sapiens, UniProt Q92794, residues 1-85)
Method: protein binding microarray
Form: double-stranded DNA, one strand shown
Medium: in vitro
Concentration: not given
Setting: 8-mer, flanks averaged, mean of 2 arrays, mostly near background
Relative to: not given
Direction: higher = stronger binding
Residues (chain): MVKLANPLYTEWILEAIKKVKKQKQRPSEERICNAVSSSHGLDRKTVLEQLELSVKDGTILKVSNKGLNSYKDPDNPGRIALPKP
| Sequence | E-score |
| --- | --- |
| AACAGCCT | -0.00053 |
| AACTACAA | -0.108 |
| CCTGGGAA | -0.00577 |
| CACGCCGA | 0.308 |
| CTGGGAGC | 0.0165 |
| ATTGTGGC | -0.0254 |
| AATACGTA | 0.0223 |
| ACAGTTTC | -0.158 |

Set 2
SMILES: CN(C)C(=O)Cn1cc(-c2nc(C3(c4ccc(-c5cnc(N)nc5)cc4)CC3)no2)cn1
Effect on: cell-free assay
Method: competition with immobilised ligand
Concentration: 1 µM
| target | remaining binding [%] |
| --- | --- |
| PRKG1 (Homo sapiens, UniProt Q13976) | 89 |
| MAP2K7 (Homo sapiens, UniProt O14733) | 87 |
| PIK3CA (Homo sapiens, UniProt P42336, H1047Y) | 94 |
| KIT (Homo sapiens, UniProt P10721, T670I/V559D) | 100 |
| TNIK (Homo sapiens, UniProt Q9UKE5) | 100 |
| PIK3CD (Homo sapiens, UniProt O00329) | 100 |
| CLK4 (Homo sapiens, UniProt Q9HAZ1) | 89 |
| CDKL5 (Homo sapiens, UniProt O76039) | 82 |
| RIPK1 (Homo sapiens, UniProt Q13546) | 89 |
| STK38 (Homo sapiens, UniProt Q15208) | 84 |
| KIT (Homo sapiens, UniProt P10721, V559D/V654A) | 100 |

Set 3
Species: mouse
Medium: microsomes or S9
Concentration: 2 µM
Time: 0.5 h
| Structure (SMILES) | remaining compound [%] |
| --- | --- |
| CC(O)c1ccc(-c2ccc(CNn3nnnc3N)o2)cc1 (stereo not shown) | > 99.9 |
| COc1cc(=O)n(C)cc1C(=O)NCc1nc(C)no1 | 74.7 |
| CS(=O)(=O)N(C#Cc1ccccc1F)Cc1ccccc1 | < 1 |

Set 4
Cell line: A-375
Concentration: 100 µM
Time: 18 h
| Structure (SMILES) | viability |
| --- | --- |
| CCc1oc2ccccc2c1C(=O)c1cc(Br)c(O)c(Br)c1 | 43% |
| CS(=O)(=O)c1ccc(C(=O)Nc2ccc(Cl)c(-c3ccccn3)c2)c(Cl)c1 | 86.7% |
| CC(=O)Oc1cc(C(C)C)c(OCCN(C)C)cc1C | 82.9% |

Excerpt of the above (set 2):
| target | remaining binding [%] |
| --- | --- |
| KIT (Homo sapiens, UniProt P10721, T670I/V559D) | 100 |
| TNIK (Homo sapiens, UniProt Q9UKE5) | 100 |
| PIK3CD (Homo sapiens, UniProt O00329) | 100 |
| CLK4 (Homo sapiens, UniProt Q9HAZ1) | 89 |
